Assay results of several laboratories.
Each line is one published result; not all experiments were run side by side. Several values in a cell are separate wells, animals, samples, runs or records. ± gives the spread as reported.

SMILES | assay | test system | setting | scale | endpoint | value
CN1C(=O)[C@@H](NC(=O)c2nnc(Cc3ccccc3)[nH]2)COc2cccnc21 | phase I single ascending dose | human, male and female | oral, 200 mg, fasted | – | medical device site reaction incidence | 0%
CC(F)(F)c1nc2nc(CO)cc(Nc3ccc(S(F)(F)(F)(F)F)cc3)n2n1 | LC-MS/MS | malaria patients, plasma | oral, 800 mg of parent drug | – | AUC(0-t), metabolite | 362 µg·h/mL
COc1ccc2c(c1)CN(C(=O)CCN1CCC(Cc3ccccc3)CC1)CC[S@@+]2[O-] | telemetry | conscious male beagle dogs | intravenous, 8 mg/kg, 4 h | – | QTc interval | 251 ± 4 ms
CC(=O)O[C@H]1C(=O)[C@@]2(C)[C@H]([C@H](OC(=O)c3ccccc3)[C@]3(O)C[C@H](OC(=O)[C@H](O)[C@@H](NC(=O)c4ccccc4)c4ccccc4)C(C)=C1C3(C)C)[C@]1(OC(C)=O)CO[C@@H]1C[C@@H]2O | refers to: Hypophosphataemia | patients with advanced solid tumours | intravenous, dose not given, all grades, possibly related to drug | – | adverse event incidence | 11%
N#Cc1ccc(-c2cnc3ccc(-c4ccc(C(=O)N5CCOCC5)cc4)cn23)cc1 | refers to: QT interval | healthy volunteers | oral, 10 mg, fasted, time-averaged | – | placebo-corrected change from baseline | 9.5 ms
CCN(CC)Cc1ccc2cc(COC(=O)Nc3ccc(C(=O)NO)cc3)ccc2c1 | – | rat plasma | 5 ng/mL, 21 days, -80 °C | relative to: nominal concentration | stability relative error | 102%
Cc1ccc([C@@H]2O[C@H](CO)[C@@H](O)[C@H](O)[C@H]2O)cc1Cc1ccc(-c2ccc(F)cc2)s1 | – | Japanese type 2 diabetes patients | 25 mg, day 16, 24 h urine collection | relative to: baseline | urinary chloride excretion change | 1.57 mEq
Cc1cc(C(=O)NC(C)(C)COc2cccc3c2C(N)=NS(=O)(=O)N3)cc(C)n1 | – | Sprague-Dawley rat, plasma | oral, 100 mg/kg, vehicle 1% methylcellulose | relative to: female over male | Cmax ratio | 0.51
C=CCN1CC(=O)N2[C@@H](Cc3ccc(O)cc3F)C(=O)N(Cc3cccc(N4CC(N5CCN(CC)CC5)C4)n3)C[C@@H]2N1C(=O)NCc1ccccc1 | – | advanced solid tumour patients | oral, 100 mg twice daily, any grade, dose-escalation | – | treatment-related AST increased | 33.3%
COc1cccc(OC)c1-c1cc(C(=O)NC2(C(=O)O)C3CC4CC(C3)CC2C4)nn1-c1ccc(C(=O)N(C)CCCN(C)CCCN(C)C(=O)CN2CCN(CC(=O)[O-])CCN(CC(=O)[O-])CCN(CC(=O)[O-])CC2)cc1C(C)C.[177Lu+3] (stereo not drawn) | – | mouse, HT-29 xenograft | 168 h post injection, biodistribution | relative to: tumour over lung uptake | tumour-to-lung ratio | 7.22
N#Cc1ccc2c(c1)[C@H]1CCCN(C(=O)c3ccc4[nH]cnc4c3)[C@H]1C2 | – | human females | 240 mg, day 15 | – | SHBG level | 42 nmol/L
CNCc1ccc(-c2[nH]c3cc(F)cc4c3c2CCNC4=O)cc1 | – | patients | oral, 600 mg twice daily, grade 2 | – | abdominal pain incidence | 0%
Cc1nc2cccc(OCC(C)(C)C(=O)NC(C)C)c2c(N)c1C(=O)O | – | Swiss albino CD-1 mouse | oral, 2000 mg/kg, 48 h | – | mean body weight change | 0.8 ± 0.6 g
O=C(O)CCC(=O)O.[2H]C([2H])([2H])Oc1cc(C)c2[nH]ccc2c1CN1CC[C@@H](C2CC2)C[C@H]1c1ccc(C(=O)O)cc1 | multiple ascending dose | healthy Chinese subjects | 200 mg once daily | – | subjects with TEAE Acne | 0%
CCN1CCN(Cc2ccc(NC(=O)c3ccc(C)c(NC(=O)c4cncc(-c5cccs5)c4)c3)cc2C(F)(F)F)CC1 | LC-MS/MS | C57BL/6 mouse, plasma | intraperitoneal, 20 mg/kg single dose, 4 h | – | plasma concentration | 204 ng/mL and 198 ng/mL and 206 ng/mL
O=C(O)c1cc(O)c(O)c(O)c1 | – | broiler chickens, serum | oral, in feed, 2000 mg/kg feed, wheat diet with tannins | – | AUC | 1.71 ± 0.31 µM·h
CNC(=O)c1ccc(-c2cnc3ncc(Cc4ccc5ncccc5c4)n3n2)cc1F | refers to: Dyspnea | cancer patients | oral, 600 mg twice daily, all expansion cohorts, grade 3-4 | – | patients with adverse event | 0%
C=CC(=O)N(C)CCOc1c(N)ncnc1-c1cc(F)cc(NC(=O)c2ccc(C3CC3)cc2F)c1C | – | human, plasma | oral, 5 mg single dose | – | AUC | 0.00277 µg·h/mL
Cc1cc(NC2CCN(C(=O)OC3CCN(C(=O)/C=C/CN(C)C)C3)CC2)n2ncc(C(C)C)c2n1 (stereo not drawn) | – | patients with advanced solid tumours | dose not given, QD arm, grade 3 or higher | – | patients with Flatulence | 0%
Cc1ccc(Sc2ccccc2N2CCNCC2)c(C)c1 | refers to: Headache | healthy adult women | oral, 5 mg daily, 12 days | – | participants with TEAE | 0%
CCCOc1ccc(-c2ccc(C#N)cc2)cc1 | – | Sprague-Dawley rat, female, placenta | 5000 ng/mL in perfusate, 50 (unit not given), high dose, mixture of 21 LCMs | – | median placental accumulation | 449 ng/g
